# Assay results pooled from the literature.
# Every numbered part comes from another study and shows a few of its results, in no order. Positions count from the first letter of the parent shown.

# Set 1
# Target: CCND2, cyclin fold, Cln2 fusion (human)
# Method: yeast growth competition, sequencing
# Medium: yeast
# Setting: weak parent motif
# Relative to: not given
# Direction: higher = stronger binding
# Parent: SCAPER docking peptide (human); SNARRSLNFGGST
Variant,normalised enrichment score
N8C,0.0534
S12C,0.252
L7A,0.354
R5A L7A,0.0322
N8W,0.134
N2H,0.112
L7E,-0.113
S12A,0.625

# Set 2
# Target: Histone acetyltransferase KAT6A, winged helix 2, GST fusion (KAT6A, Homo sapiens, UniProt Q92794, residues 85-181)
# Method: protein binding microarray
# Molecule type: double-stranded DNA, one strand shown
# Medium: in vitro
# Tested at: not given
# Setting: 8-mer, flanks averaged, mean of 2 arrays, mostly near background
# Relative to: not given
# Direction: higher = stronger binding
# Target sequence (chain): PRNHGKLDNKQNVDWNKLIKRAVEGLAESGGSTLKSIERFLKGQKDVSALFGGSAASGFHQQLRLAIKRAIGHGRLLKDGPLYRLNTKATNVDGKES
Sequence,E-score
AAAGCTGG,0.0519
ATGAGGAG,-0.094
GTCCCTCA,0.0598
AATACGCG,-0.0221
AGTTAGCA,0.0355
ACGACTTA,-0.222
GATTCGAA,0.112
AACGTGTA,-0.104

# Set 3
# SMILES: CN(C)S(=O)(=O)c1ccc2c(c1)/C(=C/c1cc3c([nH]1)CCCC3)C(=O)N2
# Observed: enzyme activity
# Mode: inhibitor
# Tested at: 0.5 µM
# Relative to: control
target,remaining activity [%]
"Casein kinase I isoform epsilon (CSNK1E, Homo sapiens, UniProt P49674)",104
"SRSF protein kinase 1 (SRPK1, Homo sapiens, UniProt Q96SB4)",63.8
"Ephrin type-A receptor 2 (EPHA2, Homo sapiens, UniProt P29317)",96.5
"Muscle, skeletal receptor tyrosine-protein kinase (MUSK, Homo sapiens, UniProt O15146)",82.8
"Tyrosine-protein kinase JAK1 (JAK1, Homo sapiens, UniProt P23458)",66.8
"Insulin-like growth factor 1 receptor (IGF1R, Homo sapiens, UniProt P08069)",89.5

# Set 4
# Target: Interferon regulatory factor 5, full length, phosphomimetic (IRF5, Homo sapiens, UniProt Q13568-2, residues 1-514, K96S/S451D/S453D/S456D/S462D)
# Method: protein-binding microarray
# Molecule type: double-stranded DNA, one strand shown
# Medium: in vitro
# Tested at: 250 nM
# Setting: 60-bp whole probe
# Added: salmon DNA 0.4 mg/ml
# Relative to: random background probes
# Direction: higher = stronger binding
# Shared flanks, not repeated: GCCTAGCAC … GTCTTGATTCGCTTGACGCTGCTG
Sequence,log fluorescence [z-score]
GACGATATCAGGTTTCGAGACGTGCTA,3.14
TTAGGTCTCGGACTGGGTGAGTGCTAG,-0.384
TTAGATTTCAGTCTCGAATAGTGCTAG,2.44
TCATATTTAAGGCCTATGACTGTGCTA,-0.122
TTAGGTTTCGGGACTGGGTTTGTGCTA,6.06
GGCGATTTCGGGTTTCGAGACGTGCTA,5.49
GACGATTCCAGTTGCGAGACGTGCTAG,0.236
TTAGGTATCGGGTATCGATTAGTGCTA,6.42

# Set 5
# Target: Alpha-1B adrenergic receptor (ADRA1B, Homo sapiens, UniProt P35368)
# Observed: ligand displacement
# Tested at: 10 µM
Compound,inhibition [%]
NS(=O)(=O)c1cc(NC(=O)Cc2ccccc2)ccc1Oc1cccc(Cl)c1,-0.38
Nc1cnc(N2CCc3cc(S(=O)(=O)Nc4c(F)cc(Cl)cc4F)cc(N4CCCC4=O)c32)nc1,4.68
c1ccc(N2CCN(Cc3nc4ccccc4[nH]3)CC2)nc1,23.5
CNC(=N)NCCC[C@H](NC(=O)[C@H](CC(C)C)NC(=O)NNC(=O)[C@H](Cc1ccccc1)NC(=O)[C@H](CO)NC(=O)[C@H](CC(N)=O)NC(=O)[C@@H](Cc1ccncc1)NC(=O)[C@H](N)Cc1ccc(O)cc1)C(=O)N[C@@H](Cc1ccccc1)C(N)=O,-7.65
CNC(=O)Nc1ccc2c(c1)CC[C@]21OC(=O)N(CC(=O)N(Cc2ccc(F)cc2)[C@@H](C)C(F)(F)F)C1=O,1.93
C[C@@H](c1cccc(C#N)c1)n1cc(Cl)cc(C(N)=O)c1=N,-5.97
COc1cccc(NC(=O)c2nc3scc(CN(C)Cc4ccccc4)c3c(=O)[nH]2)c1,12.9
C[C@H](c1ccc(F)cc1)N(Cc1cccc(C(=O)O)c1)C(=O)c1cnc2ccccc2c1,-0.5
CN(C)c1ncnc(-c2ccc3nc(Nc4cc(CN5CCN(C(=O)CC(F)(F)F)CC5)ccn4)[nH]c3c2)c1Cl,4.51
COc1ccc2cc(OCC3(C(=O)O)CN(C(=O)c4ccc(F)cc4)C3)ccc2c1,-11.4
O=S(=O)(NC1CCC(c2cc(F)ccc2F)(S(=O)(=O)c2ccc(Cl)cc2)CC1)C(F)(F)F (centres unmarked),-5.22
CCC(F)(F)c1cc(N2CCC(S(C)(=O)=O)CC2)nc2sc(C(N)=O)c(N)c12,-0.02
CCC(=NO)C(C)=Cc1ccc(F)c(C)c1,0.56
NC(=O)c1ccc2nc(-c3ccc(C4(N)CCC4)cc3)c(-c3ccccc3)n2n1,-8.97
COc1cc(-c2cn(C3CCc4c(F)cccc4N(CC(F)(F)F)C3=O)nn2)ccc1-n1cnc(C)c1 (centres unmarked),19.9
CN1CCN(c2cnc3c(C4CCN(C(=O)c5ccc(OC(F)(F)F)cc5N)CC4)ncnc3c2)CC1,16.4
Cc1ccccc1Oc1cc(-n2c(=O)cc(C(F)(F)F)[nH]c2=O)c2ccccc2c1Cl,19.3
CS(=O)(=O)N1CCCC(NC(=O)[C@H](CCC2CCCCC2)NC(=O)c2ccc(CNC(=O)c3cnc4ccccn34)cc2)C1 (some centres unmarked),-15
CCc1ccccc1C(=O)Nc1n[nH]c2c(C)c(F)c(C3C(C#N)=C(C)N(C)C(C)=C3C#N)cc12,-9.38
C[C@H](c1ccnc(Nc2nc3ccc(-c4cc(N(C)C)ncn4)cc3[nH]2)c1)N1CCN(C(=O)CC(F)(F)F)CC1,2.95
Nc1nc(NCc2ccccc2)nc(-c2ccccc2CO)n1,-15.4
Cc1ncc(-c2cc(Cl)ccc2F)cc1-n1c(=O)n(CC(N)=O)c2ccccc21,5.45
CC[C@H](CC(=O)O)n1c(=O)c2ncccc2n(Cc2cn(C)c3cc(C)cc(C)c23)c1=O,-5.58

# Excerpt of the above (set 4):
Sequence,log fluorescence [z-score]
TTAGATTTCAGTCTCGAATAGTGCTAG,2.44
TCATATTTAAGGCCTATGACTGTGCTA,-0.122
TTAGGTTTCGGGACTGGGTTTGTGCTA,6.06
GGCGATTTCGGGTTTCGAGACGTGCTA,5.49
